Results of several laboratories.
A part holds a random share of what one study measured.

Set 1
Target: Histone acetyltransferase KAT6A, winged helix 2, GST fusion (KAT6A, Homo sapiens, UniProt Q92794, residues 85-181)
Method: protein binding microarray
Molecule type: double-stranded DNA, one strand shown
Medium: in vitro
Concentration: not given
Setting: 8-mer, flanks averaged, mean of 2 arrays, mostly near background
Relative to: not given
Direction: higher = stronger binding
Target sequence (chain): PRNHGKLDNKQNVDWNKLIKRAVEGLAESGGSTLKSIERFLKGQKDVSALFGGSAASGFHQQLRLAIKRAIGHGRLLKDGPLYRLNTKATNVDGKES
Strand | E-score
CGATATCC | 0.0312
CCAATGGA | 0.0781
ATGCTCGG | 0.196
CGGATCAA | 0.157
AAACAATT | -0.0708
ATGAAACG | -0.0394
AACGTTGC | -0.193
CCGCGGCG | 0.205
GACAAGCA | 0.0726
ACTGTTCC | -0.161
AGGTGCAA | 0.0212
ATGGCAAG | 0.0732
ATACGGAT | -0.0765
AACCGGAA | -0.125
GGGCCCAA | 0.105
CGAGAATA | -0.0736
CGACCGTC | -0.143
ATCATTCG | 0.086

Set 2
Target: Interferon regulatory factor 7, full length, phosphomimetic (IRF7, Homo sapiens, UniProt Q92985, residues 1-503, S471D/S472D/S475D/S476D/S477D/S483D/S484D/S487D)
Sequence of UniProt Q92985 (whole entry, unmodified, looked up): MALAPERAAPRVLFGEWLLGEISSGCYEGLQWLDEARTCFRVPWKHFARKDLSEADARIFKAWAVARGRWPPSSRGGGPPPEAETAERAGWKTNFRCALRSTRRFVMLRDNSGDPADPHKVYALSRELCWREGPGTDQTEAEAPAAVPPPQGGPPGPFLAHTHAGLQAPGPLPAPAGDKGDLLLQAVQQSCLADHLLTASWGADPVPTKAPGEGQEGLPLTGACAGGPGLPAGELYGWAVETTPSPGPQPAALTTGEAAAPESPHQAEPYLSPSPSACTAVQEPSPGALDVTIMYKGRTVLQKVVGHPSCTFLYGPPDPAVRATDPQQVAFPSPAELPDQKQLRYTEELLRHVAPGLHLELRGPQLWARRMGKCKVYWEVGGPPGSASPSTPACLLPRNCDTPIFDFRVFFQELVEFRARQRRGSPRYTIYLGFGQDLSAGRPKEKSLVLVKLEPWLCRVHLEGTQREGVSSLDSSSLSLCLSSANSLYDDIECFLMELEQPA
Method: protein-binding microarray
Molecule type: double-stranded DNA, one strand shown
Medium: in vitro
Concentration: 2200 nM top
Setting: 60-bp whole probe
With: salmon DNA 0.4 mg/ml
Relative to: random background probes
Direction: higher = stronger binding
Constant ends, left off below: GCCTAGCAC … GTCTTGATTCGCTTGACGCTGCTG
Strand | fitted relative affinity
GTGAGTCCCGAGAATGGTGTGGTGCTA | -0.218 z-score
TTAGGTTTCAGTCTCGATTAGTGCTAG | 1.83 z-score
GACGATATCGGGCATCGAGACGTGCTA | -0.44 z-score
AAGTGTTTGGTGTCTTTTGTGGTGCTA | 0.65 z-score
GACCGTATCGGGTTTCGGGACGTGCTA | 1.64 z-score
CTAGGTCTCGGACTGGGTTAGTGCTAG | -0.564 z-score
TAGTTTTTACTTTCTGAATGGTGCTAG | 4.8 z-score
GAACATACTAGTTTCCATTTGTGCTAG | 5.68 z-score
TTAGGTCTCCTACTGCTTTGGTGCTAG | 0.616 z-score
TTAGTTTTCGGTCTCGGTTAGTGCTAG | 7.18 z-score
TTAGGTTTCGGTTCCGGTTCGTGCTAG | 12.7 z-score
TTAGGACAGGGGTATCGGTTAGTGCTA | -0.513 z-score
TTAGGACTGGACTTTCGTTTAGTGCTA | 4.24 z-score
GACGGTCTCCTTTTCCTGTCGTGCTAG | 2.47 z-score
TTAGGTTTCCTACTCCTTTAGTGCTAG | 1.82 z-score
TTAGGACTGGAAACTGGGTTAGTGCTA | -0.498 z-score
GACGGTATCGGTATCGGGAGGTGCTAG | 0.156 z-score
AGAGCTCTGGCACCTCTAGACGTGCTA | -0.536 z-score
GACGGTATCCTACTGCTTACGTGCTAG | 0.901 z-score
GACGAACTGAGTTTCCAGACGTGCTAG | 0.864 z-score
TCATTTTTTTTTTCATCATTGTGCTAG | 2.45 z-score
GACGAATTCAGTATCGAGACGTGCTAG | 0.247 z-score
TCAGCCCTCCCTGTGGGACTGTGCTAG | -1 z-score
GGCGGTTTCGACTATCGGGACGTGCTA | 3.15 z-score

Set 3
Target: RING finger protein unkempt homolog, zinc fingers 1-6, GST-SBP tag (UNK, Homo sapiens, UniProt Q9C0B0, residues 30-357)
Sequence of UniProt Q9C0B0 (30-357, looked up): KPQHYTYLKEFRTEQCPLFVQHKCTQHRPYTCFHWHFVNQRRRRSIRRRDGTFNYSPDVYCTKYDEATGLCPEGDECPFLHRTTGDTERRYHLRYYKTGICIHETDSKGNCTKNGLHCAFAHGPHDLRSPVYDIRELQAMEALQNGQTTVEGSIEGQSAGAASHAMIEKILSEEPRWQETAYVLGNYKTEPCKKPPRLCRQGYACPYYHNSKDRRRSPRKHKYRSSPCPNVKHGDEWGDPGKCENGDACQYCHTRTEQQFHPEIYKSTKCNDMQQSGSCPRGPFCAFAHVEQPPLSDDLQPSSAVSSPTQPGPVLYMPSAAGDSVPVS
Method: RNA Bind-n-Seq
Molecule type: RNA
Medium: in vitro
Concentration: not given
Setting: RNA with constant flanks, human and mouse sites, ends assumed
Relative to: input RNA pool
Direction: higher = stronger binding
Constant ends, left off below: GGGAGUUCUACAGUCCGACGAUC … CAACAGAGGAUUGAGCAUCA
Strand | bound/input enrichment [ratio]
AUUGAGAAGGCCCAGAACAUGUCCAAAUAUGUGUUGAUUGACACACCUGGACAGAUUGAGGUAUUCACCUGGUCAGCUUCUGGGACAAUUAUCACUGAAGCCCUUGCAUCCUCAUUUCCA | 0.106
UCUUACACGAUCCAGUCUGAGCUGGGAGACUAUGACCCAGAACUGCACGGCAUGGAUUAUGUUAGUGAUUUUAAACUGGCUCCAAAUCAGACCAAGGAACUUGAAGAAAAGGUCAUGGAA | 0.171
UAAAACUGUAACAUAUCUCUUAUAUAUUAAAAAAAAAAACCUUUAAAAGUUUUAAAGAGAAAUUGCAUUAAUACAGAUUGAAGUAUUUUAUUCUUUUUUUGACUUGAAAAAUUAUAUUUC | 1.06
CUUUACUGGCAAGAGACUUCCUUUGAUUUCUACUGUUUACAAAUAAAACUCAGCCAGUCUCAUUCUAUAUCCCAAACGUACUGAAUGAAACUGAUUUUGGUUCCACAAGCAGUGUUUGGG | 0.111
CAGAAAAACUUCUUUACAGAUUUAAUUCAAGACUGGUCUAGUGACAGUCCUCCAGACAUUUUUUCAUUUGUUCCAUAUACGUGGAAUUUUAAAAUCAUGUUUCAUCAGUUUGAAAUGAUU | 0.172
GGAGGCCACCCCAAACCCCAGCCCCAACUCCAGGGGCACCUAUGAGAUGGCCAUGCUCAACCCCCCUCCCAGACAGGCCCUCCCUGUCUCCAGGGCCCCCACCGAGGUUCCCAGGGCUGG | 0.342
AAAGGAGAAUCCGGCCAGUCAUGGCCUAGGUUAACAAAGGAAAGGGCAAAGCUUAAUUGGCUCAGUGUGGACUUCAAUAAUUGGAAAGACUGGGAGGAUGACUCAGAUGAAGACAUGUCG | 0.808
AAAUGUGCUGCCUCUGUUGGAAUUGGUUCUAAUAUUCUCCUGGCUAGAAUGGCAACUAGAAAAGCAAAACCAGAUGGGCAGUACCACCUAAAACCAGAAGAAGUAGAUGAUUUUAUCAGA | 0.327
UCAAAUAAUCAUCAGUGCAAAUUCUGUAGUAGACAUUUUUGUUAUAAAAAGUCUUUAGAGAAUCAUUUGGCUAAAACCCAUAGGUCCCUUUUAUUAGGGAAAAAACAUGGGUUAAAAAUG | 0.66
GUACAACUAAUGCUGCUCCAGGAGCGCAGCUCAGUAGCAGAGCAUAUGCUUAGCAUGUGCUUAGCAUGCUCAGGGACUUGAAUUCAGUCUCCCAUGACAAAGAAAAGGGGGUGGGCCAGA | 0.281
AUGGGUGGAUUAUUUUCUCGAUGGAGGACAAAACCUUCAACUGUAGAAGUUCUAGAAAGUAUAGAUAAGGAAAUUCAAGCAUUGGAAGAAUUUAGGGAAAAAAAUCAGAGAUUACAAAAA | 10.2

Set 4
Target: Prothrombin, mature alpha-thrombin (F2, Homo sapiens, UniProt P00734)
Method: aptamer microarray, sandwich
Molecule type: DNA with 2'F-ANA
Medium: in vitro
Concentration: 200 nM
Setting: whole 15-mer aptamer, many near background
With: Cy3 exosite-II aptamer, 400 nM
Direction: higher = stronger binding
Strand: GGTTGGTGTGGTTGG
Modification | mean fluorescence intensity
2'F-ANA at 4 7 8 12 13 14 15 | 147 a.u.
2'F-ANA at 5 6 8 10 14 | 45.9 a.u.
2'F-ANA at 3 6 8 9 13 | 821 a.u.
2'F-ANA at 2 3 5 6 7 11 14 15 | 50.5 a.u.
2'F-ANA at 1 5 8 11 12 13 15 | 73.8 a.u.
2'F-ANA at 2 3 4 9 12 | 1000 a.u.
2'F-ANA at 2 4 5 8 9 13 14 15 | 56.7 a.u.
2'F-ANA at 1 2 3 6 7 9 11 | 157 a.u.
2'F-ANA at 1 7 8 10 12 13 | 91.3 a.u.
2'F-ANA at 2 3 6 8 13 14 | 374 a.u.
2'F-ANA at 3 4 6 8 12 13 | 685 a.u.
2'F-ANA at 2 5 6 7 8 9 10 11 15 | 50.3 a.u.
2'F-ANA at 1 2 3 5 8 10 13 14 | 44 a.u.
2'F-ANA at 1 3 4 8 9 10 13 15 | 56.6 a.u.
2'F-ANA at 1 2 6 8 9 11 12 15 | 251 a.u.
2'F-ANA at 2 4 5 8 9 10 11 12 | 49.3 a.u.
2'F-ANA at 1 2 4 5 9 10 11 13 | 47.9 a.u.
2'F-ANA at 1 3 5 7 12 14 15 | 44 a.u.
2'F-ANA at 1 3 6 7 9 13 | 164 a.u.
2'F-ANA at 2 3 4 7 8 9 12 13 15 | 684 a.u.
2'F-ANA at 1 2 3 4 8 9 11 13 15 | 127 a.u.

Some of these lines once more (set 2):
Strand | fitted relative affinity
GTGAGTCCCGAGAATGGTGTGGTGCTA | -0.218 z-score
TTAGGTTTCAGTCTCGATTAGTGCTAG | 1.83 z-score
GACGATATCGGGCATCGAGACGTGCTA | -0.44 z-score
AAGTGTTTGGTGTCTTTTGTGGTGCTA | 0.65 z-score
GACCGTATCGGGTTTCGGGACGTGCTA | 1.64 z-score
CTAGGTCTCGGACTGGGTTAGTGCTAG | -0.564 z-score
